Measured values of several laboratories.
Parts stem from different laboratories: compare values within a part only. Values joined by “and” are separate records of one study, mostly repeats; a detail may differ.
UniProt P41145, sequence (whole entry, looked up): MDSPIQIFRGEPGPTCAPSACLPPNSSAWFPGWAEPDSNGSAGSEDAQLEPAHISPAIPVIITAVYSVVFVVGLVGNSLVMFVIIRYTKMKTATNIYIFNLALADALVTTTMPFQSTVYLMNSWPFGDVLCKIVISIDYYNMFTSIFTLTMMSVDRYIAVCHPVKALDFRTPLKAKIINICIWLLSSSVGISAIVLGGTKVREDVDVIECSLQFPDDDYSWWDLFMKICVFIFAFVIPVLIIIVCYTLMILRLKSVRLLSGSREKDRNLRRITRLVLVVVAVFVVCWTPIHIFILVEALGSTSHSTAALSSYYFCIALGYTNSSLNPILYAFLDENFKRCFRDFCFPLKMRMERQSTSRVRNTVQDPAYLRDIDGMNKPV

Sample 1
SMILES: Cn1cc(-c2cccc(CN3CCC4(CC3)COc3c4ccc4c3CN([C@H]3CCC(=O)NC3=O)C4=O)c2)cn1
host	sample	route	dose	setting	MRT(0-t)
cynomolgus monkey	plasma	oral	3.02 mg/kg		8.03 h
rat	plasma	intravenous	1.02 mg/kg		1.96 h
cynomolgus monkey		oral	3 mg/kg		7.67 h and 8.1 h and 8.32 h
cynomolgus monkey	plasma	intravenous	1 mg/kg		4.76 h
rat		intravenous	1 mg/kg	approximate dose	1.99 h and 1.95 h
rat		oral	3 mg/kg	approximate dose	5.43 h and 5.01 h and 3.33 h
cynomolgus monkey		intravenous	1 mg/kg		5.51 h and 4.45 h and 4.31 h
rat	plasma	oral	2.98 mg/kg		4.59 h

Sample 2
Target: Membrane-associated tyrosine- and threonine-specific cdc2-inhibitory kinase (PKMYT1, Homo sapiens, UniProt Q99640)
UniProt Q99640, sequence (whole entry, looked up): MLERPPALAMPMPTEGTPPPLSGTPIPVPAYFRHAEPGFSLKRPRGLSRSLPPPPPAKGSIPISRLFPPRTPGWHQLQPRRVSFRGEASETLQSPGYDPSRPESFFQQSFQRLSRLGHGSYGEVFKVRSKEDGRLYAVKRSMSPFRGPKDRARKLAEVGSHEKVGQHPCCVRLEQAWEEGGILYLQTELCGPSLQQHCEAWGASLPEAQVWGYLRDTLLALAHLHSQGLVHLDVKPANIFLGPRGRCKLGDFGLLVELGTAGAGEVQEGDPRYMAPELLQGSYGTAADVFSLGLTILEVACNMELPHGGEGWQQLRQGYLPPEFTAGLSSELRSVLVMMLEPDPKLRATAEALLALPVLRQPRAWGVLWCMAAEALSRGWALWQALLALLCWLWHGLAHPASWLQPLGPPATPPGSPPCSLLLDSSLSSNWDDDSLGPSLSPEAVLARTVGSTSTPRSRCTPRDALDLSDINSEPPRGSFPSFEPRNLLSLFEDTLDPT
Effect on: binding
Method: HTRF
Tested at: 0.051 nM
SMILES	inhibition
Cc1ccc(O)c(C)c1-c1cnc2[nH]c(-c3cnc(N4CCC(CN5CCN(c6ccc(N7CCC(=O)NC7=O)cc6F)CC5)CC4)nc3)cc2c1C#N	-2.09% and -2.19%
Cc1ccc(O)c(C)c1-c1cnc2[nH]c(-c3cnc(N4CCC(CN5CCN(c6ccc7c8c(cccc68)C(=O)N7C6CCC(=O)NC6=O)CC5)CC4)nc3)cc2c1C#N (racemic)	-4.36% and -7.8%
Cc1ccc(O)c(C)c1-c1cnc2[nH]c(-c3cnc(N4CCC(CN5CCN(c6ccc(C(=O)NC7CCC(=O)NC7=O)c(F)c6)CC5)CC4)nc3)cc2c1C#N (racemic)	-9.11% and -9.38%

Further values, each from its own experiment
OPRD1 with Gi1: Delta-type opioid receptor, with Gi1 (OPRD1, Homo sapiens, UniProt P41143)
UniProt P41143, sequence (whole entry, looked up): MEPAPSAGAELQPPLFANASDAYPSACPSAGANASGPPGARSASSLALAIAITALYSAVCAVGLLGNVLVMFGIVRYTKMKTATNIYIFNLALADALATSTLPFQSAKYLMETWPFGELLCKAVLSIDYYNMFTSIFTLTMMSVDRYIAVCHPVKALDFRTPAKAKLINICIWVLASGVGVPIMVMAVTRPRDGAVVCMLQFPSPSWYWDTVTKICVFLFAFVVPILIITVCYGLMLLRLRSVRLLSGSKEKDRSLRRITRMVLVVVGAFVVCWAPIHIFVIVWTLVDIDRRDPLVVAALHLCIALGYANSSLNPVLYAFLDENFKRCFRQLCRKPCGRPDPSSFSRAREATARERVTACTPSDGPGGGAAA
SMILES	target or system	test	test system	conditions	quantity	value
N=C(N)NCCCN1CC[C@]23c4c5ccc(O)c4O[C@H]2c2[nH]c4ccccc4c2C[C@@]3(O)[C@H]1C5	OPRD1 with Gi1	agonist			EC50	1.82 nM
Cc1c(NC(=O)c2cccn(-c3ccc(F)cc3)c2=O)ccc(Oc2ccnc(NC(=O)C3CC3)c2)c1C	L929	necroptosis protection, CCK-8		10 µM, added: TNF-α-induced	viability	81.1%
N=C(N)NCCCCN1CC[C@]23c4c5ccc(O)c4O[C@H]2c2[nH]c4ccccc4c2C[C@@]3(O)[C@H]1C5	OPRD1 with Gi1	agonist			EC50	3.47 nM
CC(C)(C)n1nc(-c2ccc(Cl)cc2)c2c(N)ncnc21	L929	necroptosis protection, CCK-8		0.313 µM, added: TNF-α-induced	viability	44.6%
N=C(N)NCCCCCCN1CCC23c4c5ccc(O)c4OC2c2nc4ccccc4cc2CC3(O)C1C5 (stereo not drawn)		metabolic stability	human, liver microsomes	1 µM, pH 7.4	microsomal CLint	< 6 µL/min/mg
Cc1cc(-c2cnc(N)c3c(-c4ccc5scnc5c4)csc23)n(C)n1	L929		MEM 10% FBS	12.5 µM	viability	35.4% and 48.5% and 40.9% and 33.7% and 46.4%
N=C(N)NCCCCCCN1CC[C@]23c4c5ccc(O)c4O[C@H]2c2[nH]c4ccccc4c2C[C@@]3(O)[C@H]1C5	Kappa-type opioid receptor, with Gi1 (OPRK1, Homo sapiens, UniProt P41145)		human cells		EC50	450 nM

Repeated from above (further values, each from its own experiment):
SMILES	target or system	test	test system	conditions	quantity	value
CC(C)(C)n1nc(-c2ccc(Cl)cc2)c2c(N)ncnc21	L929	necroptosis protection, CCK-8		0.313 µM, added: TNF-α-induced	viability	44.6%
N=C(N)NCCCCCCN1CCC23c4c5ccc(O)c4OC2c2nc4ccccc4cc2CC3(O)C1C5 (stereo not drawn)		metabolic stability	human, liver microsomes	1 µM, pH 7.4	microsomal CLint	< 6 µL/min/mg
